Measured values of several laboratories.
A part holds a random share of what one study measured. “And” joins repeats or separate records; there may be more than shown.
Chain of UniProt Q96SB4 (whole entry, looked up): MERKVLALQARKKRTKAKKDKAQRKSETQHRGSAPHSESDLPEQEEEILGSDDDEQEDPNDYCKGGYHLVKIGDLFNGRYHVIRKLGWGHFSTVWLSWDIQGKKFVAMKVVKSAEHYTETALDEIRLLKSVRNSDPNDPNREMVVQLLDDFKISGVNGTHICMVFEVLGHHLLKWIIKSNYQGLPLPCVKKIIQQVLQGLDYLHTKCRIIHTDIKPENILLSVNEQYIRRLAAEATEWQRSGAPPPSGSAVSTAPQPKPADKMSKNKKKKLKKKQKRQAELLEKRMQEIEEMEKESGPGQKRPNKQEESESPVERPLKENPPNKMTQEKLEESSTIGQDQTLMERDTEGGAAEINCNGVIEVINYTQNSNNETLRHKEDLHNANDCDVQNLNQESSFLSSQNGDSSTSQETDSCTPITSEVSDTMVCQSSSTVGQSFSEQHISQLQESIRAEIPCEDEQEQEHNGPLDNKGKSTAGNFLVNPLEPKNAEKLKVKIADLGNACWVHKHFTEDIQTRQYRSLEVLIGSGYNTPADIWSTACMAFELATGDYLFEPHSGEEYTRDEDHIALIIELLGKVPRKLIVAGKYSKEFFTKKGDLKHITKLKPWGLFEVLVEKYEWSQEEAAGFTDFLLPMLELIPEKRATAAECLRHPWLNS
Chain of UniProt Q96Q40 (whole entry, looked up): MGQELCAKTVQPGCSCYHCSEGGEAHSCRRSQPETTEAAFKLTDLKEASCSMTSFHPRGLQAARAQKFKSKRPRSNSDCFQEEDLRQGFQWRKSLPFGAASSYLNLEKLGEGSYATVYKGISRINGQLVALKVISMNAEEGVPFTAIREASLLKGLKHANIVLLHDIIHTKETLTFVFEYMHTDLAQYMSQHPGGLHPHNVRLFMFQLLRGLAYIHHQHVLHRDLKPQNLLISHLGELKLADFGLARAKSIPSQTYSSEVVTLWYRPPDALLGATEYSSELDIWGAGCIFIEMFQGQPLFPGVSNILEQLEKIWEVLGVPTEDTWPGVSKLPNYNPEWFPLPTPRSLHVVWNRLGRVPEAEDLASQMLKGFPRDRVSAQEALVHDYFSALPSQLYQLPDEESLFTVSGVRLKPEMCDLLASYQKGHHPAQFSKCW
Chain of UniProt P21709 (whole entry, looked up): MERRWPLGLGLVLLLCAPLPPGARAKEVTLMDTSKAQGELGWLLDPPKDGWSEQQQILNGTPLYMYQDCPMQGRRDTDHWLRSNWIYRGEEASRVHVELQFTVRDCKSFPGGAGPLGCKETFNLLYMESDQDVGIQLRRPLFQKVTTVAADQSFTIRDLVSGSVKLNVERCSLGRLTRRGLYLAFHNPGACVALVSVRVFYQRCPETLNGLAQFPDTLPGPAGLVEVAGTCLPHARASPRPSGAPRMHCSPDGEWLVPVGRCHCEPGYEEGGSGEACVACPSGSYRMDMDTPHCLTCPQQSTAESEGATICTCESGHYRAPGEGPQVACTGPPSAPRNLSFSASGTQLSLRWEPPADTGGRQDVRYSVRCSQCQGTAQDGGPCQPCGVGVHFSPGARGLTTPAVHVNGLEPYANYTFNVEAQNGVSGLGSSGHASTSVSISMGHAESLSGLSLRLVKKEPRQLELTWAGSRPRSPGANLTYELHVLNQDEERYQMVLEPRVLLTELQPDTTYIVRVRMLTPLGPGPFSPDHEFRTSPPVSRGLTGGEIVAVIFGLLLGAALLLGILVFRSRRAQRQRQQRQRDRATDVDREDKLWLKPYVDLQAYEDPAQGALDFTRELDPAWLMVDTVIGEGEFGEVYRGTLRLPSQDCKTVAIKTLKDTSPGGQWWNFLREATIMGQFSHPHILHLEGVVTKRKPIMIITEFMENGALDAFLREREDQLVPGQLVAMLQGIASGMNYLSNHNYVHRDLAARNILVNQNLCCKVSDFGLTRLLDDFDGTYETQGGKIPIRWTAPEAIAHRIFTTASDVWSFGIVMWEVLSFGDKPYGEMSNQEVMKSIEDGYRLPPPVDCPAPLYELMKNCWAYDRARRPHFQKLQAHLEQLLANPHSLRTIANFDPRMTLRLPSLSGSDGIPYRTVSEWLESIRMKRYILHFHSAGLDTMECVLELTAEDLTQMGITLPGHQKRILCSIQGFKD
Chain of UniProt Q14012 (whole entry, looked up): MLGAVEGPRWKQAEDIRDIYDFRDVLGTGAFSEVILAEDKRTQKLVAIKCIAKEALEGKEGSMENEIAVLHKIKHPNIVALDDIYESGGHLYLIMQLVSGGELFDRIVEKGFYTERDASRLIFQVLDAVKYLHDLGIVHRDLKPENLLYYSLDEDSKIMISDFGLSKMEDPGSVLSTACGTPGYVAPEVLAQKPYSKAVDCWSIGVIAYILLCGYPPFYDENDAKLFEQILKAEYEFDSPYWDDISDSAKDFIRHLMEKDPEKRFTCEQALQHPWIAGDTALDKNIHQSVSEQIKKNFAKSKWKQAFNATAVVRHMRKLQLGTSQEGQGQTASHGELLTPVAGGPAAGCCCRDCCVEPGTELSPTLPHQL

Sample 1
SMILES: COc1cc(-c2cn(C3CCc4c(F)cccc4N(CC(F)(F)F)C3=O)nn2)ccc1-n1cnc(C)c1 (stereo not drawn)
Method: competition with immobilised ligand
Tested at: 1 µM
Measurement: remaining binding
target = Receptor-type tyrosine-protein kinase FLT3 (FLT3, Homo sapiens, UniProt P36888, ITD); assay = cell-free assay; value = 100%
target = Death-associated protein kinase 3 (DAPK3, Homo sapiens, UniProt O43293); assay = cell-free assay; value = 100%
target = Serine/threonine-protein kinase Nek4 (NEK4, Homo sapiens, UniProt P51957); assay = cell-free assay; value = 100%
target = Receptor-type tyrosine-protein kinase FLT3 (FLT3, Homo sapiens, UniProt P36888, D835Y); assay = cell-free assay; value = 86%
target = Cyclin-dependent kinase 15 (CDK15, Homo sapiens, UniProt Q96Q40); assay = cell-free assay; value = 100%
target = Calcium/calmodulin-dependent protein kinase type IV (CAMK4, Homo sapiens, UniProt Q16566); assay = cell-free assay; value = 100%
target = Serine/threonine-protein kinase 38-like (STK38L, Homo sapiens, UniProt Q9Y2H1); assay = cell-free assay; value = 78%
target = Interleukin-1 receptor-associated kinase 3 (IRAK3, Homo sapiens, UniProt Q9Y616); assay = cell-free assay; value = 100%
target = Serine/threonine-protein kinase VRK2 (VRK2, Homo sapiens, UniProt Q86Y07); assay = cell-free assay; value = 100%
target = Rho-associated protein kinase 2 (ROCK2, Homo sapiens, UniProt O75116); assay = cell-free assay; value = 100%
target = Cyclin-dependent kinase 11A (CDK11A, Homo sapiens, UniProt Q9UQ88); assay = binding; value = 100%
target = Serine/threonine-protein kinase N2 (PKN2, Homo sapiens, UniProt Q16513); assay = cell-free assay; value = 100%
target = Cyclin-G-associated kinase (GAK, Homo sapiens, UniProt O14976); assay = cell-free assay; value = 88%
target = Serine/threonine-protein kinase Sgk2 (SGK2, Homo sapiens, UniProt Q9HBY8); assay = cell-free assay; value = 95%
target = cAMP-dependent protein kinase catalytic subunit PRKX (PRKX, Homo sapiens, UniProt P51817); assay = cell-free assay; value = 100%
target = Ephrin type-A receptor 1 (EPHA1, Homo sapiens, UniProt P21709); assay = cell-free assay; value = 100%
target = Receptor-type tyrosine-protein kinase FLT3 (FLT3, Homo sapiens, UniProt P36888); assay = cell-free assay; value = 89%
target = Phosphatidylinositol 5-phosphate 4-kinase type-2 beta (PIP4K2B, Homo sapiens, UniProt P78356); assay = cell-free assay; value = 73%
target = Tyrosine-protein kinase ABL2 (ABL2, Homo sapiens, UniProt P42684); assay = cell-free assay; value = 100%
target = Mast/stem cell growth factor receptor Kit (KIT, Homo sapiens, UniProt P10721, D816H); assay = cell-free assay; value = 67%
target = Ribosomal protein S6 kinase alpha-3, C-terminal kinase domain (RPS6KA3, Homo sapiens, UniProt P51812); assay = cell-free assay; value = 100%
target = Cyclin-dependent kinase 14 (CDK14, Homo sapiens, UniProt O94921); assay = cell-free assay; value = 100%
target = Tyrosine-protein kinase Fer (FER, Homo sapiens, UniProt P16591); assay = cell-free assay; value = 100%
target = Homeodomain-interacting protein kinase 3 (HIPK3, Homo sapiens, UniProt Q9H422); assay = cell-free assay; value = 100%
target = Ephrin type-B receptor 2 (EPHB2, Homo sapiens, UniProt P29323); assay = cell-free assay; value = 100%

Sample 2
Target: DNA polymerase theta, ATPase domain (POLQ, Homo sapiens, UniProt O75417)
Chain of UniProt O75417 (whole entry, unmodified, looked up): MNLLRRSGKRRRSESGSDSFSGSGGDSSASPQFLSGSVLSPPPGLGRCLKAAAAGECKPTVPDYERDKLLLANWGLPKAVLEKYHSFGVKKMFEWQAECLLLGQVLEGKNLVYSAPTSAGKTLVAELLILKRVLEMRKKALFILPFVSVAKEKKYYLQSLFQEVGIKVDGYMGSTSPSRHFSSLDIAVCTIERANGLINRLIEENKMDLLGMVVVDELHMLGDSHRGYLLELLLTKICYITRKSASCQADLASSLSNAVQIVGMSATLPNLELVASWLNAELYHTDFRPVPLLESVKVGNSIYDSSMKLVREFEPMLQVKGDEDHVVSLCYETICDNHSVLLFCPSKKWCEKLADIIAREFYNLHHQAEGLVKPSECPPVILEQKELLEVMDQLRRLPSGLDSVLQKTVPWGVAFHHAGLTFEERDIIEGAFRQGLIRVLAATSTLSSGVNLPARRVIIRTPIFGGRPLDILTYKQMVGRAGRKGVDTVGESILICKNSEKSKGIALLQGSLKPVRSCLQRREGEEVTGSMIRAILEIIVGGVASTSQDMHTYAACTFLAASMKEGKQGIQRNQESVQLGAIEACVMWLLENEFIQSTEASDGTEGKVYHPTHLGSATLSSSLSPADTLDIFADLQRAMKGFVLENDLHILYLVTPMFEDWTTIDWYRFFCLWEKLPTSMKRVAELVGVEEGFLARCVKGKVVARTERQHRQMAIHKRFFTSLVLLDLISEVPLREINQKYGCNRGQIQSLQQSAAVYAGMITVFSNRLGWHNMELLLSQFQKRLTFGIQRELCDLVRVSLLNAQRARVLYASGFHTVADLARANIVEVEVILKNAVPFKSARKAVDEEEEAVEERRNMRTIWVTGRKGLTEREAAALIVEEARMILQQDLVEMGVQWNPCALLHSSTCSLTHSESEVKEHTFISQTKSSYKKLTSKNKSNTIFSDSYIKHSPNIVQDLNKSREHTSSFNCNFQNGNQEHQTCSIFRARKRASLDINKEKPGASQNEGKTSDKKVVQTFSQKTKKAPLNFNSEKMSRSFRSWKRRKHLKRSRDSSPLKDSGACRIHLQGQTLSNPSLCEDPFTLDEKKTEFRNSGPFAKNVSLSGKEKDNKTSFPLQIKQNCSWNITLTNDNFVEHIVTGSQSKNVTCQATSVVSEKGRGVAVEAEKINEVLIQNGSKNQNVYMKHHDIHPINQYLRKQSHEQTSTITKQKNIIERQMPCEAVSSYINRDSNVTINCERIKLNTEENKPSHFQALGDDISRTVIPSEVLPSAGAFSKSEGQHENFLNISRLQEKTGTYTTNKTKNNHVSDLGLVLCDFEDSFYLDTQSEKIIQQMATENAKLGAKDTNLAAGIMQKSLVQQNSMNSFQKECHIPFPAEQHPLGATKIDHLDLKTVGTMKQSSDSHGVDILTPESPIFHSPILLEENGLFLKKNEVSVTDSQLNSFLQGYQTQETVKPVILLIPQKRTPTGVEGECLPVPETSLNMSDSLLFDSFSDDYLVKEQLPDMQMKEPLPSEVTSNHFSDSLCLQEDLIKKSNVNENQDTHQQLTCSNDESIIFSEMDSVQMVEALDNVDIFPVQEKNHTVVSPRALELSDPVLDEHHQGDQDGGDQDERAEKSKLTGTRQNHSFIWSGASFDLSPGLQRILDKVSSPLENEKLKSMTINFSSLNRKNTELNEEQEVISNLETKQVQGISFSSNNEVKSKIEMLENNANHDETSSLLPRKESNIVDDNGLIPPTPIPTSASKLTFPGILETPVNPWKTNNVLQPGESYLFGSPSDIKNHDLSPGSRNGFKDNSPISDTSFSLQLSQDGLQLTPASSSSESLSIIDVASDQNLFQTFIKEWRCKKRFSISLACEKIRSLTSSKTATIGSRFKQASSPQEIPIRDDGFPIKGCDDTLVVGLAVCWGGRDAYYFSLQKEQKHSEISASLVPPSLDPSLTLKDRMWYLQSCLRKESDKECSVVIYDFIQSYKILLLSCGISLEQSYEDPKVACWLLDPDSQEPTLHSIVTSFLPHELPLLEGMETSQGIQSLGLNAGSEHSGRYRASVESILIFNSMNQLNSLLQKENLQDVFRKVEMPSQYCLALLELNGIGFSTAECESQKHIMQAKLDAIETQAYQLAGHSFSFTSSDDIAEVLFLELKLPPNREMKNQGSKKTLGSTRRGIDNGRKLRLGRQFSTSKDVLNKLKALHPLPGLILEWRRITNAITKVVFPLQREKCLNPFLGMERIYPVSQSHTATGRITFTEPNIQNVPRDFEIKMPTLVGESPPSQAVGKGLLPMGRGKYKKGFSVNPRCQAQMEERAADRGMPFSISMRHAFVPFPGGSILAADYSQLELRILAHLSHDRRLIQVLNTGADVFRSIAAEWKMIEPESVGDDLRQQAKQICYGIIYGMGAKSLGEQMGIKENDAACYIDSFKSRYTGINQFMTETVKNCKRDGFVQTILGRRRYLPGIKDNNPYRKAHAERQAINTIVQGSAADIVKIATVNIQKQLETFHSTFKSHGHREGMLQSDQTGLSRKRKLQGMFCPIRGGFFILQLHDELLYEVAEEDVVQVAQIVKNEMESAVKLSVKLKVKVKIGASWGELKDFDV
Observed: enzyme activity
Mode: inhibitor
Tested at: 77 µM
Relative to: untreated
Measurement: remaining activity
SMILES = OCc1c[nH]c2ccccc12; value = 102%
SMILES = CN(C)Cc1ccc(-c2nc3cccc4c3n2CCNC4=O)cc1; value = 97.6%
SMILES = CN(C)CCOC(C)(c1ccccc1)c1ccccn1 (stereo not drawn); value = 98.4% and 102%
SMILES = O=C(COc1ccc(C(=O)c2ccccc2)cc1)NC1CCN(Cc2ccccc2)CC1; value = 104%
SMILES = COc1ccc(-c2cc(=O)c3c(O)cc(O)cc3o2)cc1; value = 102%
SMILES = CN(C)CCC[C@@]1(c2ccc(F)cc2)OCc2cc(C#N)ccc21; value = 96.3%
SMILES = Cc1ccc(Nc2nccc(N(C)c3ccc4c(C)n(C)nc4c3)n2)cc1S(N)(=O)=O; value = 109% and 107% and 106% and 81.1% and 99%
SMILES = Cc1ccc2c(c1)c1c3n2CCNC3CCC1 (stereo not drawn); value = 100%
SMILES = Cc1nc(N=Nc2ccc(S(=O)(=O)O)cc2S(=O)(=O)O)c(COP(=O)(O)O)c(C=O)c1O; value = 106%
SMILES = C[C@]12C=CC(=O)C=C1CC[C@H]1[C@@H]3C[C@@H](O)[C@](O)(C(=O)CO)[C@@]3(C)C[C@H](O)[C@@]12F; value = 86.6% and 97.1%

Sample 3
SMILES: O=C(Nc1cnn(-c2csc(C(=O)NC3COC3)c2)c1)Nc1c(F)cccc1Cl
Observed: enzyme activity
Tested at: 5 µM
Measurement: remaining activity
target = Ephrin type-A receptor 5 (EPHA5, Homo sapiens, UniProt P54756); scale = relative to: untreated control; value = 92%
target = Tyrosine-protein kinase HCK (HCK, Homo sapiens, UniProt P08631); scale = relative to: untreated control; value = 91%
target = SRSF protein kinase 1 (SRPK1, Homo sapiens, UniProt Q96SB4); scale = relative to: untreated control; value = 99%
target = Kinase suppressor of Ras 1 (KSR1, Homo sapiens, UniProt Q8IVT5); assay = inhibitor; value = 105%
target = Protein kinase C iota type (PRKCI, Homo sapiens, UniProt P41743); scale = relative to: untreated control; value = 81.4%
target = Calcium/calmodulin-dependent protein kinase type 1 (CAMK1, Homo sapiens, UniProt Q14012); scale = relative to: untreated control; value = 97.5%
target = Serine/threonine-protein kinase/endoribonuclease IRE1 (ERN1, Homo sapiens, UniProt O75460); scale = relative to: untreated control; value = 94.6%
target = Activin receptor type-1-like (ACVRL1, Homo sapiens, UniProt P37023); scale = relative to: untreated control; value = 119%
target = SRSF protein kinase 3 (SRPK3, Homo sapiens, UniProt Q9UPE1); scale = relative to: untreated control; value = 85.7%
target = Tyrosine-protein kinase Lyn (LYN, Homo sapiens, UniProt P07948); scale = relative to: untreated control; value = 93.3%

Sample 4
Host: human
Medium: microsomes or S9
Tested at: 2 µM
Time: 0.5 h
Measurement: remaining compound
SMILES = O=C(Nc1cc(Br)cc2c1N(c1ncccn1)CC2)c1ccccc1; value = 4.93%
SMILES = O=C(c1c(F)cccc1F)N(Cc1n[nH]c(=O)[nH]1)c1ccccc1; value = 70.7%
SMILES = COc1cc2c(cc1OC)CCN(C(C)C(=O)NC(C)C)CC2 (stereo not drawn); value = 3.34%
SMILES = COc1cc(CN2CCN(S(=O)(=O)c3ccc(NC(C)=O)cc3)CC2)cc(OC)c1OC; value = 78.9%
SMILES = COc1cc(=O)n(-c2ccccc2)cc1C(=O)N1CCC(N2CCc3ccccc3C2)C1 (stereo not drawn); value = 67.1%
SMILES = CCOc1cccc(C2c3cccn3-c3sc4c(c3CN2C(=O)NCc2ccc(C)cc2)CCCC4)c1 (stereo not drawn); value = 14.1%
SMILES = COc1cc2c(Br)c(O)c(Br)cc2cc1Cc1ccccc1; value = 53.9%
SMILES = N#Cc1ccccc1-c1nc2cc(Cl)ccc2c2ccnn12; value = 75.9%
SMILES = CCc1cc2c3c([nH]c2cc1S(=O)(=O)NCCCN1CCOCC1)CC(C)(C)CC3=O; value = 42.1%

A few entries again (sample 3):
target = SRSF protein kinase 1 (SRPK1, Homo sapiens, UniProt Q96SB4); scale = relative to: untreated control; value = 99%
target = Tyrosine-protein kinase Lyn (LYN, Homo sapiens, UniProt P07948); scale = relative to: untreated control; value = 93.3%
target = SRSF protein kinase 3 (SRPK3, Homo sapiens, UniProt Q9UPE1); scale = relative to: untreated control; value = 85.7%
target = Serine/threonine-protein kinase/endoribonuclease IRE1 (ERN1, Homo sapiens, UniProt O75460); scale = relative to: untreated control; value = 94.6%
